{"data": "Published values pooled from the literature", "cell line": "MCF7", "note": "Lines come from different studies, so protocols differ. ± marks the error that the study gave."}
{"Structure (SMILES)": "CC(=O)c1nn(-c2ccc(Cl)cc2)/c(=N/N=C(\\C)c2ccc(NC(=O)c3ccc(C)cc3)cc2)s1", "setting": "2.5 µM", "quantity": "viability", "value": "7.93%"}
{"Structure (SMILES)": "C=CC(=O)c1cccnc1Nc1cc(C(F)(F)F)ccc1OC", "test": "reporter gene, measured: TEAD luciferase", "setting": "100 µM", "quantity": "inhibition", "value": "98%"}
{"Structure (SMILES)": "CCOC(=O)c1sc(=NN=C(C)c2c(O)c3ccccc3oc2=O)n(CC)c1C", "test": "cell growth, MTT", "scale": "reference: IC50 BJ-1 over MCF7", "quantity": "selectivity index", "value": "> 4.83"}
{"Structure (SMILES)": "Cc1cc(=O)[nH]c(=O)n1Cc1cn(-c2cc3ccccc3oc2=O)nn1", "test": "NCI60 single-dose screen", "setting": "10 µM", "quantity": "growth percentage", "value": "89.8%"}
{"Structure (SMILES)": "C=CC(=O)c1ccccc1Nc1cc(C(F)(F)F)ccc1OC", "test": "firefly luciferase reporter", "setting": "100 µM, 6 h", "scale": "reference: vehicle", "quantity": "TEAD reporter activity", "value": "10.8 ± 2%"}
{"Structure (SMILES)": "O=[N+]([O-])c1cc(I)c(O)c(C=NNc2ccccc2)c1", "test": "ELISA", "test system": "culture supernatant", "setting": "IC50, together with: LPS", "scale": "reference: LPS alone", "quantity": "IL-6 level", "value": "34%"}
{"Structure (SMILES)": "C=CC(=O)c1cccnc1Nc1cc(NC(=O)c2ccccc2)ccc1OC", "test": "firefly luciferase reporter", "setting": "50 µM, 6 h", "scale": "reference: vehicle", "quantity": "TEAD reporter activity", "value": "44.2 ± 1.8%"}
{"Structure (SMILES)": "OCc1ccc(Nc2ccc3c(Nc4cccc(C(F)(F)F)c4)ncnc3c2)cc1", "setting": "IC50, 24 h", "quantity": "S phase cells", "value": "65.1%"}
{"Structure (SMILES)": "COc1ccc(COC[C@@](O)(CNCc2ccc(F)cc2)[C@@H]2CC[C@@H](C)C[C@H]2OCc2ccc(OC)cc2)cc1", "test": "cell growth, inhibitor, MTT", "setting": "72 h", "quantity": "IC50", "value": "1640 nM"}
{"Structure (SMILES)": "O=C(O)c1ccccc1Nc1cccc(C(F)(F)F)c1", "test": "firefly luciferase reporter", "setting": "100 µM, 6 h", "scale": "reference: vehicle", "quantity": "TEAD reporter activity", "value": "96.8 ± 2.1%"}
{"Structure (SMILES)": "CC(=O)c1nn(-c2ccc(C)cc2)/c(=N/N=C(\\C)c2ccc(NC(=O)c3ccccc3)cc2)s1", "test": "MTT", "setting": "0.078 µM", "quantity": "cytotoxicity", "value": "55.1%"}
{"Structure (SMILES)": "CCC(=O)N1CCC(COCC(=O)N2CCN(c3nc(-c4cnc(N)nc4C(F)F)nc(N4CCOC[C@@H]4C)n3)CC2)CC1", "test": "western blot, measured: phospho-PKB/Akt Ser473", "setting": "2 h", "quantity": "IC50", "value": "38.1 nM"}
{"Structure (SMILES)": "O=C(Nc1nnc2n3c(Cc4ccccc4)n[nH]c3nc(-c3ccc(Cl)cc3)c1-2)c1ccccc1", "test": "SRB", "setting": "10 µM, NCI60 single-dose screen", "scale": "reference: untreated", "quantity": "cell growth", "value": "91.4%"}
{"Structure (SMILES)": "C=CC(=O)c1cccnc1Nc1cccc(C(F)(F)F)c1", "test": "firefly luciferase reporter", "setting": "100 µM, 6 h", "scale": "reference: vehicle", "quantity": "TEAD reporter activity", "value": "5.4 ± 0.6%"}
{"Structure (SMILES)": "C=CC(=O)N1CCC(COCC(=O)N2CCN(c3nc(-c4cnc(N)nc4C(F)F)nc(N4CCOC[C@@H]4C)n3)CC2)CC1", "test": "resazurin growth rate inhibition", "setting": "72 h", "quantity": "GR50", "value": "5.9 nM"}
{"Structure (SMILES)": "CCCCN1CCN(c2ccc3[nH]c(-c4ccc5[nH]c(-c6cc(OC)c(OC)c(OC)c6)nc5c4)nc3c2)CC1", "test": "SRB", "setting": "10 µM, 48 h", "quantity": "growth percent", "value": "19.9%"}
{"Structure (SMILES)": "CSc1nc(-c2ccc(Cl)cc2)c2c(NC(=O)c3ccccc3)nnc-2[nH]1", "test": "SRB", "setting": "10 µM, NCI60 single-dose screen", "scale": "reference: untreated", "quantity": "cell growth", "value": "96.2%"}
{"Structure (SMILES)": "CC(C)c1ccc(/C=C2\\N=C(SCC(=O)O)N(c3ccccc3)C2=O)cc1", "scale": "reference: BJ1 IC50 over MCF7 IC50", "quantity": "selectivity index", "value": 1.6}
{"Structure (SMILES)": "COc1ccc(-n2nc(C(C)=O)s/c2=N\\N=C(/C)c2ccc(NC(=O)c3ccc(C)cc3)cc2)cc1", "setting": "0.156 µM", "quantity": "viability", "value": "56.1%"}
{"Structure (SMILES)": "CCCN1CCN(c2ccc3nc(-c4ccc5nc(-c6cc(OC)ccc6OC)[nH]c5c4)[nH]c3c2)CC1", "test": "SRB", "setting": "10 µM, 48 h", "quantity": "growth percent", "value": "-63.3%"}
{"Structure (SMILES)": "CC/C(=C(\\c1ccc(O)cc1)c1ccc(OCCNC)cc1)c1ccccc1", "setting": "0.1 µM, 5 days", "scale": "reference: vehicle", "quantity": "cell growth", "value": "67%"}
{"Structure (SMILES)": "CCOC(=O)c1nn(-c2cccc(Cl)c2)/c(=N/N=C(\\C)c2ccc(NC(=O)c3ccccc3)cc2)s1", "test": "MTT", "setting": "0.078 µM", "quantity": "cytotoxicity", "value": "12.3%"}
{"Structure (SMILES)": "COc1ccc(C(F)(F)F)cc1Nc1ncccc1C(=O)O", "test": "firefly luciferase reporter", "setting": "100 µM, 6 h", "scale": "reference: vehicle", "quantity": "TEAD reporter activity", "value": "80.5 ± 6.5%"}
{"Structure (SMILES)": "C=C1CN(S(=O)(=O)c2ccc(C)cc2)CCCN(CC2CCCCC2)CCCN(S(=O)(=O)c2ccc(OCCO)cc2)C1.Cl", "setting": "4 µM, 48 h, together with: progranulin 1 µg/mL", "quantity": "mammosphere formation", "value": "decreased"}
{"Structure (SMILES)": "CCCCN1CCN(c2ccc3[nH]c(-c4ccc5[nH]c(-c6ccc(C(F)(F)F)cc6)nc5c4)nc3c2)CC1", "test": "SRB", "setting": "10 µM, 48 h", "quantity": "growth percent", "value": "-74.3%"}
{"Structure (SMILES)": "COC(=O)COc1c(Cc2cc(C(C)(C)CC(C)(C)C)cc(-n3nc4ccccc4n3)c2OCC(=O)OC)cc(C(C)(C)CC(C)(C)C)cc1-n1nc2ccccc2n1", "test": "MTT", "setting": "100 µM, 24 h", "quantity": "growth inhibition", "value": "84.2 ± 1.78%"}
{"Structure (SMILES)": "O=[N+]([O-])c1ccc(O)c(C=NNc2ccc(Br)cc2)c1", "test": "ELISA", "test system": "culture supernatant", "setting": "IC50, together with: LPS", "scale": "reference: LPS alone", "quantity": "IL-6 level", "value": "43%"}
{"Structure (SMILES)": "CCOC(=O)c1nn(-c2cccc(Cl)c2)/c(=N/N=C(\\C)c2ccc(NC(=O)c3ccc(Cl)cc3)cc2)s1", "test": "MTT", "setting": "10 µM", "quantity": "cytotoxicity", "value": "96.3%"}
{"Structure (SMILES)": "CCn1c(C)csc1=NN=C(C)c1c(O)c2ccccc2oc1=O", "test": "cell growth, MTT", "scale": "reference: IC50 BJ-1 over MCF7", "quantity": "selectivity index", "value": "> 2.74"}
{"Structure (SMILES)": "CC(C)(C)OC(=O)CC[C@H](NC(=O)c1cc(Cl)ccc1OCCNC(=O)OC(C)(C)C)C(=O)Nc1ccc([N+](=O)[O-])cc1Cl", "setting": "up to 10 µM, 72 h", "quantity": "antiproliferative activity", "value": "inactive"}
{"Structure (SMILES)": "C[C@@H]1CC[C@@H]([C@](C)(O)CNCc2ccc(F)cc2)[C@H](OCc2ccccc2)C1", "test": "cell growth, inhibitor, MTT", "setting": "72 h", "quantity": "IC50", "value": "20300 nM"}
{"Structure (SMILES)": "CCn1c(C)c(N=Nc2ccccc2)sc1=NN=C(C)c1c(O)c2ccccc2oc1=O", "test": "cell growth, MTT", "scale": "reference: IC50 BJ-1 over MCF7", "quantity": "selectivity index", "value": "> 3.05"}
{"Structure (SMILES)": "C=CC(=O)c1cccnc1Nc1cc(C(F)(F)F)ccc1OCc1ccccc1", "test": "firefly luciferase reporter", "setting": "25 µM, 6 h", "scale": "reference: vehicle", "quantity": "TEAD reporter activity", "value": "66.1 ± 6.4%"}
{"Structure (SMILES)": "CC(=O)c1nn(-c2ccc(Cl)cc2)/c(=N/N=C(\\C)c2ccc(NC(=O)c3ccccc3)cc2)s1", "setting": "2.5 µM", "quantity": "toxicity", "value": "95.5%"}
{"Structure (SMILES)": "CC(=O)Nc1ccc(/C(C)=N/N=c2\\sc(C(C)=O)nn2-c2ccc(C)cc2)cc1", "test": "MTT", "setting": "0.625 µM", "quantity": "cytotoxicity", "value": "13.6%"}
{"Structure (SMILES)": "CC/C(=C(\\c1ccccc1)c1ccc(OCCN(C)C)cc1)c1ccccc1", "test": "RNA-seq, measured: CT62 mRNA", "setting": "1 µM, 24 h, E2-induced gene", "scale": "reference: DMSO vehicle", "quantity": "log2 fold change", "value": -1.21}
{"Structure (SMILES)": "C[C@]12CC[C@@H]3c4ccc(O)cc4CC[C@H]3[C@@H]1CC[C@@H]2O", "test": "histone methylation, ChIP, measured: GREB1 ERE sites", "setting": "concentration not given, 6 h", "quantity": "H3K4me2 and H3K4me3 levels", "value": "decreased"}
{"Structure (SMILES)": "COc1cccc2c1C(=O)c1c(O)c3c(c(O)c1C2=O)C[C@@](O)(C(=O)CO)C[C@@H]3O[C@H]1C[C@H](N)[C@H](O)[C@H](C)O1", "test": "flow cytometry", "setting": "4.29 µM (IC50), 72 h", "quantity": "cells in pre-G1 phase", "value": "28.3%"}
{"Structure (SMILES)": "CC(=NN=c1[nH]c(C)c(N=Nc2ccc(C)cc2)s1)c1c(O)c2ccccc2oc1=O", "test": "cell growth, MTT", "scale": "reference: IC50 BJ-1 over MCF7", "quantity": "selectivity index", "value": "> 3.8"}
{"Structure (SMILES)": "CC(=O)c1nn(-c2ccc(Cl)cc2)/c(=N/N=C(\\C)c2ccc(NC(=O)c3ccc(Cl)cc3)cc2)s1", "setting": "2.5 µM", "quantity": "toxicity", "value": "12.5%"}
{"Structure (SMILES)": "CCCCCCCC(=O)Nc1ncc(Cc2cccc(OCc3cn(CCOC)nn3)c2)s1", "test": "cell viability, MTS", "setting": "10 µM", "quantity": "inhibition", "value": "11 ± 5%"}
{"Structure (SMILES)": "C=CC(=O)c1cccnc1Nc1cc(Cl)ccc1OC", "test": "firefly luciferase reporter", "setting": "25 µM, 6 h", "scale": "reference: vehicle", "quantity": "TEAD reporter activity", "value": "86.4 ± 9%"}
{"Structure (SMILES)": "C#C[C@@]1(O)[C@@H](CO)O[C@@H](n2ccc3c(N)ncnc32)[C@@H]1O", "test": "SRB", "setting": "NCI-60 screen", "quantity": "TGI", "value": "5.66 µM"}
{"Structure (SMILES)": "CC(=O)c1nn(-c2ccccc2Cl)/c(=N/N=C(\\C)c2ccc(NC(=O)c3ccccc3)cc2)s1", "test": "MTT", "setting": "0.312 µM", "quantity": "cytotoxicity", "value": "92.5%"}
